Results pooled from the literature.
Numbers after ± are the reported error. Where no end group is shown, it is not given here. [ ]: non-standard residue; d: D form.
B1: CSF1 33-496 (Homo sapiens, UniProt P09603); sequence looked up; chain EEVSEYCSHMIGSGHLQSLQRLIDSQMETSCQITFEFVDQEQLKDPVCYLKKAFLLVQDIMEDTMRFRDNTPNAIAIVQLQELSLRLKSCFTKDYEEHDKACVRTFYETPLQLLEKVKNVFNETKNLLDKDWNIFSKNCNNSFAECSSQDVVTKPDCNCLYPKAIPSSDPASVSPHQPLAPSMAPVAGLTWEDSEGTEGSSLLPGEQPLHTVDPGSAKQRPPRSTCQSFEPPETPVVKDSTIGGSPQPRPSVGAFNPGMEDILDSAMGTNWVPEEASGEASEIPVPQGTELSPSRPGGGSMQTEPARPSNFLSASSPLPASAKGQQPADVTGTALPRVGPVRPTGQDWNHTPQKTDHPSALLRDPPEPGSPRISSLRPQGLSNPSTLSAQPQLSRSHSSGSVLPLGELEGRRSTRDRRSPAEPEGGPASEGAARPLPRFNSVPLTDTGHERQSEGSFSPQLQES
B2: YAH1 (Saccharomyces cerevisiae, UniProt Q12184); chain IAAHLLRTSPSLLTRTTTTTRFLPFSTSSFLNHGHLKKPKPGEELKITFILKDGSQKTYEVCEGETILDIAQGHNLDMEGACGGSCACSTCHVIVDPDYYDALPEPEDDENDMLDLAYGLTETSRLGCQIKMSKDIDGIRVALPQMTRNVNNNDFS
B3: UGT1A9 (Homo sapiens, UniProt O60656); chain GKLLVVPMDGSHWFTMRSVVEKLILRGHEVVVVMPEVSWQLGRSLNCTVKTYSTSYTLEDLDREFKAFAHAQWKAQVRSIYSLLMGSYNDIFDLFFSNCRSLFKDKKLVEYLKESSFDAVFLDPFDNCGLIVAKYFSLPSVVFARGILCHYLEEGAQCPAPLSYVPRILLGFSDAMTFKERVRNHIMHLEEHLLCHRFFKNALEIASEILQTPVTEYDLYSHTSIWLLRTDFVLDYPKPVMPNMIFIGGINCHQGKPLPMEFEAYINASGEHGIVVFSLGSMVSEIPEKKAMAIADALGKIPQTVLWRYTGTRPSNLANNTILVKWLPQNDLLGHPMTRAFITHAGSHGVYESICNGVPMVMMPLFGDQMDNAKRMETKGAGVTLNVLEMTSEDLENALKAVINDKSYKENIMRLSSLHKDRPVEPLDLAVFWVEFVMRHKGAPHLRPAAHDLTWYQYHSLDVIGFLLAVVLTVAFITFKCCAYGYRKCLGKKGRVKKAHKSKTH
B4: BicD F684I (Drosophila melanogaster, UniProt P16568); chain MSSASNNGPSADQSVQDLQMEVERLTRELDQVSSASAQSAQYGLSLLEEKSALQQKCEELETLYDNTRHELDITQEALTKFQTSQKVTNKTGIEQEDALLNESAARETSLNLQIFDLENELKQLRHELERVRNERDRMLQENSDFGRDKSDSEADRLRLKSELKDLKFRETRMLSEYSELEEENISLQKQVSSLRSSQVEFEGAKHEIRRLTEEVELLNQQVDELANLKKIAEKQMEEALETLQGEREAKYALKKELDGHLNRESMYHISNLAYSIRSNMEDNASNNSDGEEENLALKRLEADLSTELKSPDGTKCDLFSEIHLNELKKLEKQLESMESEKTHLTANLREAQTSLDKSQNELQNFMSRLALLAAHVDALVQLKKQIDVKEQGKEGGQKKDELEQQLRALISQYANWFTLSAKEIDGLKTDIAELQKGLNYTDATTTLRNEVTNLKNKLLATEQKSLDLQSDVQTLTHISQNAGQSLGSARSTLVALSDDLAQLYHLVCTVNGETPTRVLLDHKTDDMSFENDSLTAIQSQFKSDVFIAKPQIVEDLQGLADSVEIKKYVDTVSDQIKYLKTAVEHTIDMNKHKIRSEGGDALEKVNTEEMEELQEQIVKLKSLLSVKREQIGTLRNVLKSNKQTAEVALTNLKSKYENEKIIVSDTMSKLRNELRLLKEDAATISSLRAMFAARCEEYVTQVDDLNRQLEAAEEEKKTLNQLLRLAVQQKLALTQRLEEMEMDREMRHVRRPMPAQRGTSGKSSFSTRPSSRNPASSNANPF
Sequence of UniProt Q8NDT2 (whole entry, looked up): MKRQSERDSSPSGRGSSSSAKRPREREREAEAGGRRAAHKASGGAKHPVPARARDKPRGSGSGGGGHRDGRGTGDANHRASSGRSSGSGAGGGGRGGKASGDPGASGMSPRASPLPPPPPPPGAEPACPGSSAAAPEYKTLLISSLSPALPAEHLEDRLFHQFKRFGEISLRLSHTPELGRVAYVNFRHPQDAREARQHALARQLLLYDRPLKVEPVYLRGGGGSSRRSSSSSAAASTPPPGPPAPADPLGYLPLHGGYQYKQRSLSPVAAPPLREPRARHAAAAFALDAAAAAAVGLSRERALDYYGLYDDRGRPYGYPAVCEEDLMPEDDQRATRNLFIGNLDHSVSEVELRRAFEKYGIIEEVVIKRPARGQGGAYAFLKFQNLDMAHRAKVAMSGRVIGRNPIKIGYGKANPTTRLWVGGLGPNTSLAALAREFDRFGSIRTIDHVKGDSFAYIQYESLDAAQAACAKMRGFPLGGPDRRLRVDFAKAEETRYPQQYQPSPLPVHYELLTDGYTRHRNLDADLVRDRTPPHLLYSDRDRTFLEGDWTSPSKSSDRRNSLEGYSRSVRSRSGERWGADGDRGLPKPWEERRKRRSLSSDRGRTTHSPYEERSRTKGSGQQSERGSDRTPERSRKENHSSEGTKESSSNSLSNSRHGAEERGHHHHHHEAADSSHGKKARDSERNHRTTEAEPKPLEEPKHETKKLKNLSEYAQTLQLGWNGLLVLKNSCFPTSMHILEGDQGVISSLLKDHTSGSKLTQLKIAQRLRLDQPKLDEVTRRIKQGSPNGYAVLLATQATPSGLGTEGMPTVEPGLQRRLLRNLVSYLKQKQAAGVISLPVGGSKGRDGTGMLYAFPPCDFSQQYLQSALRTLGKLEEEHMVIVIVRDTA
Sequence of UniProt P40013 (whole entry, looked up): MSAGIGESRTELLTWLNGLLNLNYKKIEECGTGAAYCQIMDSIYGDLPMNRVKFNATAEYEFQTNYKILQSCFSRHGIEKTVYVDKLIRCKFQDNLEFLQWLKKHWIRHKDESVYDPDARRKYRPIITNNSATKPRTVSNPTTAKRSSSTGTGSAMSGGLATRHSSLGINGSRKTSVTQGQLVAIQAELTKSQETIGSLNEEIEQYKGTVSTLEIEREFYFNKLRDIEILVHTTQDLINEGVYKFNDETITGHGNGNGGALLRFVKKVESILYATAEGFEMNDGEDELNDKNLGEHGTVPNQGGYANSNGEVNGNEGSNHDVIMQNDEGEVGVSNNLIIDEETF
Sequence of UniProt P05813 (whole entry, looked up): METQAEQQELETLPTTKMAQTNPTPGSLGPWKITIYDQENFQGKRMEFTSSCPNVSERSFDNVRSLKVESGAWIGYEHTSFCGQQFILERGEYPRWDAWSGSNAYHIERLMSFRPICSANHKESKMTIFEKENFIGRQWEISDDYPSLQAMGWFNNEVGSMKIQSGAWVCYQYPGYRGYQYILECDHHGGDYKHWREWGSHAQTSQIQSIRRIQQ
Sequence of UniProt P29066 (whole entry, unmodified, looked up): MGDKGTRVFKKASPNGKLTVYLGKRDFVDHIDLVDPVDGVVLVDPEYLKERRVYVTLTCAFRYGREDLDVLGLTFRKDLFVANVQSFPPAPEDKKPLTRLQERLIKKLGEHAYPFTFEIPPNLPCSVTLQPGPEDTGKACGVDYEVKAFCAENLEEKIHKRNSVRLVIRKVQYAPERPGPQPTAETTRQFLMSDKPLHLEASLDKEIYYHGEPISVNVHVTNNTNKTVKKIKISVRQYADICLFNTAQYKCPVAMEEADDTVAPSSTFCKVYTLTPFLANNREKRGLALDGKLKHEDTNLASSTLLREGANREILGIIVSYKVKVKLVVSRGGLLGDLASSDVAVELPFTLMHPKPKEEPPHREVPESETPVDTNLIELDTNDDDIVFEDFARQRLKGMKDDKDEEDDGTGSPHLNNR
Sequence of UniProt O43766 (whole entry, looked up): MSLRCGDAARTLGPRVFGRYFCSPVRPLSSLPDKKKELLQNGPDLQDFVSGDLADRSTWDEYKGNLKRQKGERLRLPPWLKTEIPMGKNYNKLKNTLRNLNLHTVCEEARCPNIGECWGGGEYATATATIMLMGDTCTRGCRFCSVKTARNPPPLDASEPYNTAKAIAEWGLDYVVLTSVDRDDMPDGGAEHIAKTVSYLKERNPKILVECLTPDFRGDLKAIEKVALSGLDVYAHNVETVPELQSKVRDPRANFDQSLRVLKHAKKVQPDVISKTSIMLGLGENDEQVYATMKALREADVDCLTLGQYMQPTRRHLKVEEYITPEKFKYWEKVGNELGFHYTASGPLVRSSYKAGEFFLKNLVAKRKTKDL
Sequence of UniProt Q9UBU9 (whole entry, looked up): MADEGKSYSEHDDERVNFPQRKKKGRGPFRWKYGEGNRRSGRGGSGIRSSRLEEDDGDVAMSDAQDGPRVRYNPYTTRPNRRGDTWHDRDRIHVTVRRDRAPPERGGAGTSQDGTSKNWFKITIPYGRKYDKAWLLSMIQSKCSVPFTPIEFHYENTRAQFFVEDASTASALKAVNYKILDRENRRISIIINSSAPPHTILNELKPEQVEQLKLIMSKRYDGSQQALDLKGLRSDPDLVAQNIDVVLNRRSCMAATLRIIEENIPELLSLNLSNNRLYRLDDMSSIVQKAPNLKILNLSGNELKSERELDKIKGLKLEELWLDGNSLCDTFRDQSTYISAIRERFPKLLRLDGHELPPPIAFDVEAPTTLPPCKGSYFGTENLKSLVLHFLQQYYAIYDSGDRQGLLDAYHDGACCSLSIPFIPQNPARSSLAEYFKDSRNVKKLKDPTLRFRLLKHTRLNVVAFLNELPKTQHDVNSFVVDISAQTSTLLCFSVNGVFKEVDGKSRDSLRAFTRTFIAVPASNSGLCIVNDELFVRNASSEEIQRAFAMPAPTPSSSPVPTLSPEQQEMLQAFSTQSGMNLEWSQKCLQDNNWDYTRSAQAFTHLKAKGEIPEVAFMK
Sequence of UniProt P07333 (whole entry, looked up): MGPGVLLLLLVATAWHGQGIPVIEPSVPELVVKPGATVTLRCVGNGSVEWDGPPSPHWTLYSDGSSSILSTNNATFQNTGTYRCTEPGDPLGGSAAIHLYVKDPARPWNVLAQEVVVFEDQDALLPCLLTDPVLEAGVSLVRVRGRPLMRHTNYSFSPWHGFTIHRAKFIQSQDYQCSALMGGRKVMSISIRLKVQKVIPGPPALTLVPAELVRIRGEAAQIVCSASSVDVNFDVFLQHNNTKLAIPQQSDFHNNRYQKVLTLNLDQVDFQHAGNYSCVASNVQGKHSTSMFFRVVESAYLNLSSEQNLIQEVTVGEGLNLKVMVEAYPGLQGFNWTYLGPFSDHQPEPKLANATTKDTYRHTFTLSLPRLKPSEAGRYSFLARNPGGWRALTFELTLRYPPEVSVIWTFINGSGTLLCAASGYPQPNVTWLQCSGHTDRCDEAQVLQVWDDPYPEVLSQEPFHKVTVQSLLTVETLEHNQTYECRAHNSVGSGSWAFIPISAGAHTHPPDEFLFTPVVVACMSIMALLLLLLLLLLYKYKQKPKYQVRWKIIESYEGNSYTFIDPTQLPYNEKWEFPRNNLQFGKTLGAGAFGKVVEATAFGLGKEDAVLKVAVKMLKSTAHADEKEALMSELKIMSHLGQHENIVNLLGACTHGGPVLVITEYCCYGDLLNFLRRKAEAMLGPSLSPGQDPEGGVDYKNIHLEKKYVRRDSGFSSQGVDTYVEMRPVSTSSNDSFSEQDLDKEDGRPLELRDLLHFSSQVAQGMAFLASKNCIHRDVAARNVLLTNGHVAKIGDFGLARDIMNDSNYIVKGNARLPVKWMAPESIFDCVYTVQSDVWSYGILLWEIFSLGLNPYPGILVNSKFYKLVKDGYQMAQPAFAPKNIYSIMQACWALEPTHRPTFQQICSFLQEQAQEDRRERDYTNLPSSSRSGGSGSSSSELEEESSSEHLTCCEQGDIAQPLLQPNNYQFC
Sequence of UniProt A9UHW6 (whole entry, looked up): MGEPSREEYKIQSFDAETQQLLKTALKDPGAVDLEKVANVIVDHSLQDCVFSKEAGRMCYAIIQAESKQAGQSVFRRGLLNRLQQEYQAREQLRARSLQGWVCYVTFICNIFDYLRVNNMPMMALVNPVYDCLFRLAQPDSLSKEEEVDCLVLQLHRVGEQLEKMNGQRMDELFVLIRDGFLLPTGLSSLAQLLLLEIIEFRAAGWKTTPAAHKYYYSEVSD
Sequence of UniProt Q14493 (whole entry, looked up): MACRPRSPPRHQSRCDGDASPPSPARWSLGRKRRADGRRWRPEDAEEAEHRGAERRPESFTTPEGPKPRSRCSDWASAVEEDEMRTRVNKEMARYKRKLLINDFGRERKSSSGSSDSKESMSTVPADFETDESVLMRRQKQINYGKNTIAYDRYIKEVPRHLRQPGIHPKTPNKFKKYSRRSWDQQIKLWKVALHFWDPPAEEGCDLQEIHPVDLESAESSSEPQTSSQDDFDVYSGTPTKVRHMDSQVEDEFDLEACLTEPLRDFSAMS

Molecule | tested on | test | test system | setting | how to read | quantity | value
SRI C-terminal Ca-binding domain | SLC8A1 (Oryctolagus cuniculus) | Ni2+-sensitive current | rabbit cardiomyocytes | 3 µM, increase | reference: control, higher = greater NCX activity | NCX activity | 120%
YGIGVGW | – | – | peptide, human polyclonal IgM RF WEAK | concentration not given, 5 µg/mL mAb II-481 coated, together with: RF at 50% max binding concentration | – | inhibition | 0%
KAR9 50-residue Site2 peptide (Saccharomyces cerevisiae) | BIM1 194-344 (Saccharomyces cerevisiae, UniProt P40013) | ITC | – | pH 7.5, 25 °C, NaCl 150 mM | – | molecule per partner | 0.99
NXF1 (Homo sapiens, UniProt Q9UBU9) | RBM15B (Homo sapiens, UniProt Q8NDT2) | reporter expression, coactivator | 293T | in cells | higher = more expression | p24gag expression | 2 fold
RASA1 minimal catalytic domain | HRAS 1-166, S-glutathionylated Cys118 (Homo sapiens, UniProt P01112) | GAP-mediated GTP hydrolysis | – | 25 °C | – | GTP hydrolysis rate | 0.00194 s⁻¹
FBXO5 fragment R322A/L325A (Homo sapiens) | APC/C/CDH1 (Homo sapiens) | ubiquitination assay | – | – | – | Ki | 810 ± 230 nM
B1 (CSF1 33-496) | CSF1R Fc fusion D1-D5 20-512 (Homo sapiens, UniProt P07333) | SPR | – | pH 7.4, NaCl 0.15 M | – | koff | 0.031 s⁻¹
B2 (YAH1) | LIAS (Homo sapiens, UniProt O43766) | HPLC-MS | – | together with: NADPH | reference: FDX2, higher = more lipoylation | lipoylation | 3 fold over FDX2
B3 (UGT1A9) | COc1c(O)cc2oc(-c3ccccc3)cc(=O)c2c1O | steady-state kinetics | – | pH 7.4, 37 °C | – | Vmax | 0.00206 µmol/min/mg
B4 (BicD F684I) | DYNC1H1/DYNC1I2/DYNC1LI2/DYNLT1/DYNLRB1/DYNLL1 (Homo sapiens) | single-molecule TIRF | – | – | – | speed | 0.42 µm/s
CRYBB1 fragment (Homo sapiens) | CRYBA1, Alexa Fluor 488 label (Homo sapiens, UniProt P05813) | FRET | – | pH 7.5, 37 °C, 100 mM NaCl | – | subunit exchange rate | 0.0199 ± 0.0043 min⁻¹
CIKVAVS | – | – | peptide, human polyclonal IgM RF LOP | concentration not given, 5 µg/mL mAb II-481 coated, together with: RF at 50% max binding concentration | – | inhibition | 0%
ARGR[pT]PP[pS]LGPQDE[pS]C[pT][pT]A[pS][pS][pS]LAKDTSS (V2Rpp 343-371 (Homo sapiens); phosphorylated; pT = C[C@@H](OP(=O)(O)O)[C@H](N)C(=O)O; pS = N[C@@H](COP(=O)(O)O)C(=O)O) | Arrb1 (Rattus norvegicus, UniProt P29066) | ITC | peptide | – | – | ΔH | -20.3 ± 0.4 kcal/mol
MIF4GD (Homo sapiens, UniProt A9UHW6) | SLBP, phosphorylated, multiple sites (Homo sapiens, UniProt Q14493) | SPR | – | pH 7.4, 25 °C, NaCl 150 mM | – | koff | 0.00238 s⁻¹

For quick reference, copied from above:
Molecule | tested on | test | test system | setting | how to read | quantity | value
B4 (BicD F684I) | DYNC1H1/DYNC1I2/DYNC1LI2/DYNLT1/DYNLRB1/DYNLL1 (Homo sapiens) | single-molecule TIRF | – | – | – | speed | 0.42 µm/s
RASA1 minimal catalytic domain | HRAS 1-166, S-glutathionylated Cys118 (Homo sapiens, UniProt P01112) | GAP-mediated GTP hydrolysis | – | 25 °C | – | GTP hydrolysis rate | 0.00194 s⁻¹
